Assay results pooled from the literature.
Parts stem from different laboratories: compare values within a part only.

Study 1
Target: RNA binding protein fox-1 homolog 2, RRM domain, GST-SBP tag (RBFOX2, Homo sapiens, UniProt O43251-10, residues 100-194)
Technique: RNA Bind-n-Seq
Molecule type: RNA
Matrix: in vitro
Concentration: 365 nM
Setting: natural RNA segment, single round, ends assumed
Baseline: no-protein control
Reading: higher = stronger binding
`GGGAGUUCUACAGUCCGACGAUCAUGUAGUUGUUCGUUGGUUAUACAAGUUCUUGGUCCCUCCAGAACCACCCCGGCCCCCUGCCCGUUCUUGAAAUGUAGGCAUCAUGCAUGUCAAACAUGAGAUGUGUGGAUGGAAUUCUCGGGUGCCAA` — result for “RBNS enrichment (R)”: 0.65.
For `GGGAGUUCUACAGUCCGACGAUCCAGGGACAGGGCCUCUUUGGAAUUAGGCAGAACGACUGCCACAGCUCAGACCUCAGAGAUUGUGAAGGCAGUGCCAAGCUCACAGCAGUUCAGGACCAUCCCAGAAAGGGUGGAAUUCUCGGGUGCCAA`, “RBNS enrichment (R)” read 1.62.
Under “RBNS enrichment (R)”, `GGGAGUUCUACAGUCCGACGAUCGUUUAACAUAUACAAAUUCGUGAAUUCUUGUUCAUUUUGCAUUCCUGCAGUCAGUGCUAAUCCGUCGUUCUUAAUCAGGAGUUCUGCCAGGUUUAAGGUCACCUGCACUCUGGAAUUCUCGGGUGCCAA` is recorded as 0.363.
`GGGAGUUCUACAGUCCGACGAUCUUCCUUUCACUACCUUCUUUUUUGGGGGUAGUUGGAAGGGACUGAAAUUGUGGGGGGAAGGUAGGAGGCACAUCAAUAAAGAGGAAACCACCAAGCUGAACUGAAUUUUGUGGAAUUCUCGGGUGCCAA` — result for “RBNS enrichment (R)”: 0.435.
Under “RBNS enrichment (R)”, `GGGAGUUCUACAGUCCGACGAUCGUGUAUUGUGCCUUGUGGUGAGUAAUAAAUUAUGGCCAUUGGAAACAUUGUACAUUUAGUGUGUGUAUUUUAAUAAUGGUUGAUCUUAAAUCUGUAUACAAAAUAUCACUUGGAAUUCUCGGGUGCCAA` is recorded as 0.367.

Study 2
Target: Histone acetyltransferase KAT6A, winged helix 1, GST fusion (KAT6A, Homo sapiens, UniProt Q92794, residues 1-85)
Technique: protein binding microarray
Molecule type: double-stranded DNA, one strand shown
Matrix: in vitro
Concentration: not given
Setting: 8-mer, flanks averaged, mean of 2 arrays, mostly near background
Baseline: not given
Reading: higher = stronger binding
Construct (chain): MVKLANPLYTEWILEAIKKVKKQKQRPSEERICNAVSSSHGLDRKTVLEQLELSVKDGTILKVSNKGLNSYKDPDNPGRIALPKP
The E-score of `CACTTGCG` is reported as 0.141.
The E-score of `CCTCCACG` is reported as 0.0115.
For `GCATCACC`, the E-score was 0.0725.
`GTTCGAAA` gave an E-score of 0.0604.
`GCGTACGA` gave an E-score of 0.235.

Study 3
Target: Centromere-binding protein 1, full length, His-tagged (CBF1, Saccharomyces cerevisiae, UniProt P17106, residues 1-351)
Chain of UniProt P17106 (whole entry, looked up): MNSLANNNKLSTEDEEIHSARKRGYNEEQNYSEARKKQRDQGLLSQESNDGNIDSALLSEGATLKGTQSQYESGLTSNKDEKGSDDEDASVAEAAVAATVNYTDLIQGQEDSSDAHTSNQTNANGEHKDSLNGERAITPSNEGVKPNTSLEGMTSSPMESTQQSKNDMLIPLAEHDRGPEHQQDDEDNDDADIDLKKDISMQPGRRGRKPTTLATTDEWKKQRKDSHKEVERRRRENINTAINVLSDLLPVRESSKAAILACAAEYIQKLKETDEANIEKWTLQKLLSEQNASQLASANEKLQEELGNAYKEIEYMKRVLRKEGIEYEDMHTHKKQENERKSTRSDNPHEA
Technique: competition protein-binding microarray
Molecule type: double-stranded DNA, one strand shown
Matrix: in vitro
Concentration: 2 µM
Setting: whole 60-bp probe, lowest competitor level
Together with: Pho4 competitor, 0.05 µM
Reading: higher = stronger binding
For `ATATCCACAGTATATGGCGTGCAAAGATAAGGCTCGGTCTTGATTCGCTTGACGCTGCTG`, the fluorescence intensity was 117 a.u.
`TCAAGCAGAAGAAAGCACGTGGCCGAACGCTTACCTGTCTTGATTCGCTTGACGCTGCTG` gave a fluorescence intensity of 1290 a.u.
`TCAAAGTAGCATTAGCTCATAAGGCTTTCACCCTTGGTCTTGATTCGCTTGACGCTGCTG` gave a fluorescence intensity of 60.1 a.u.
`CATACCCAACCTTGATGCGTGGGTGAAGATATTTGTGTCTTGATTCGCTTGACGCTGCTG` has a fluorescence intensity of 79.6 a.u.
`TTTTCCGGCAAGAGTCGCGTGATGGTTTTTTCTAATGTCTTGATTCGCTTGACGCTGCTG` has a fluorescence intensity of 348 a.u.
The fluorescence intensity of `CGTCCTAGTGATTTTCACGTGGGTTCCATGAGGAAGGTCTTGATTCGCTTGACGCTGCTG` is reported as 810 a.u.
`AAATTACTAAGTTGTTATGTGGGTGACGCCGTATGAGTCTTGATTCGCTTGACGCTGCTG` has a fluorescence intensity of 73.7 a.u.

Mixed results
For `PhoQ, residues 284 288 289 292 302 303 SACGEM`, the fold induction was 10.7 (PhoP, residues 12 14 15 18 19 YHFSH (Escherichia coli, UniProt P23836); Sort-seq, refers to: YFP reporter; E. coli; PhoQ-PhoP variant library, together with: 10 µM Mg2+; baseline: high Mg2+ state, higher = stronger signaling).

Some of these lines once more (study 3):
For `ATATCCACAGTATATGGCGTGCAAAGATAAGGCTCGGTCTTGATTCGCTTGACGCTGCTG`, the fluorescence intensity was 117 a.u.
